# Measured values of several laboratories.
# A part holds a random share of what one study measured.

# Series 1 — technique: RNA Bind-n-Seq; form: RNA; matrix: in vitro; tested at: 365 nM; baseline: no-protein control; direction: higher = stronger binding
# Target: RNA binding protein fox-1 homolog 2, RRM domain, GST-SBP tag (RBFOX2, Homo sapiens, UniProt O43251-10, residues 100-194)
# Setting: natural RNA segment, single round, ends assumed
# All sequences stand within: GGGAGUUCUACAGUCCGACGAUC … UGGAAUUCUCGGGUGCCAA
# Target sequence (chain): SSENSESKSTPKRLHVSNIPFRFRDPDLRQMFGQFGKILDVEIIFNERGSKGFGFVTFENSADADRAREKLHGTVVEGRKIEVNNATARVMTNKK
Sequence,RBNS enrichment (R)
UUUUUUUCCCUUAAUGUUGAAUUAAAAUACUUGCUCAUAGUUGAUUUACCAUUCCUACAAAAGAGGCAGAAACUUUGAGCAAUCUAGGUUUUUUUUUUUUUUAAGUUUUU,1.03
CCAUUCUACUCCCAGUCCGGAAUGCCACGAGGACCUUAACCUUGUUUCUGGCUUUAGCUGCUAGUUUUCCCAAAUCUCAGUGCUUUCCCUUUUUGAACUUCCCUUCUAUU,1.05
AGUACUGCCUUGAAUUUUGGUUUAAAACCUCUCUAGUUUCAAUGACAAGUAACAACUCAAAUAAUUCCAUAUUGUUUGAGGAAGAGGCCAUAAUCCUUCUGAAUUGUUGG,1.1
UCCUUGAGCCCAGGGACCAUGGAAGUCAGCUAGAAGAGCCCUGAGCAAGGAGCAAGGACUUGGGCUUCUCCACGCUUUGCUCCUGGCUUGUUUGACCUUGACUCAUUCCC,0.313
CCCACACGCCUCACCUCGGUGAGUGGGCAGAGCUGAGCCGCACUGUGUGCCUGGGAGCAGGUUACAACUCUGGUUUGACUUUCAUUUUGUUGAGAAGCUUCUGUUUUAAG,0.488
CAGAUCUGGAAGGGCCUCCCUCUCUGCCAGUGUUUGGGUGGGUGUCAUGGGUGUCCCCACCCACUCCUCAGUGUUUGUGGAGUCGAGGAGCCAACCCCAGCCUCCUGCCA,0.425
UACUGAAACAUUGUGCCAAGAAACUCUGUGGGAUUUGUGUCCCUUAAACCAGACUCACUUUUCUGAAAAAUCUCCAUUGUUGAGGAGAGGCUGCUCAAUCGACACCCCGA,0.441
AUUGUGAAUCCUGCUGUCUGUGCAGGGCUCAUAGUGAGUGUUCUGUGAGGUGGGUGGAGACUCCUCGGAAGCCCCUGCUUCCAGAAAGCCUGGGAAGAACUGCCCUUCUG,0.282
GCCAUCCUGAAGGCCCUUCCCCAUAGGCGCUGAAGCUGGAGCUGGCGGGACCCCACCACGAGUGCUUCCAGAACCGCAACAGGAUAUCAGUCCUGCAUCUUCUGUGUAGU,0.303
UUUGAUAAAGAUUUUAAUUUAUGUAAAACUUCUAAAGCAGAAUCAAAGCUCCUCUUGGGGAAAUGGCAAGUCUUUAGGAUAGGCAAGACCCUGUAUGAAUAGUACCAAAG,0.522
GCUAUGAGGGCUCGGGGCUUGCAGGCUCUGAGGGCAUGUCGCAGGCGAGCUGGAAGGAAGCGCUCUCACUUUUUUUCAGGCAAUGUUGCUAGCCCUUCUAGCACACUGAG,7.6
CCCGCUGUCAGUCUGUGUCCUCCACGUGCUUAUUUCCUGUGGUGAGAGCAGUUGUGGUGUUUGUAUACCUUGUGCCUUAUGAUCAAGGUGGGCCUUGGAGGAGGGCGGGA,1.39

# Series 2 — technique: competition protein-binding microarray; form: double-stranded DNA, one strand shown; matrix: in vitro; tested at: 2 µM; with: Cbf1 competitor, 0.05 µM; direction: higher = stronger binding; all sequences stand within: … GTCTTGATTCGCTTGACGCTGCTG
# Target: Phosphate system positive regulatory protein PHO4, full length, GST-tagged (PHO4, Saccharomyces cerevisiae, UniProt P07270, residues 1-312)
# Sequence of UniProt P07270 (whole entry, looked up): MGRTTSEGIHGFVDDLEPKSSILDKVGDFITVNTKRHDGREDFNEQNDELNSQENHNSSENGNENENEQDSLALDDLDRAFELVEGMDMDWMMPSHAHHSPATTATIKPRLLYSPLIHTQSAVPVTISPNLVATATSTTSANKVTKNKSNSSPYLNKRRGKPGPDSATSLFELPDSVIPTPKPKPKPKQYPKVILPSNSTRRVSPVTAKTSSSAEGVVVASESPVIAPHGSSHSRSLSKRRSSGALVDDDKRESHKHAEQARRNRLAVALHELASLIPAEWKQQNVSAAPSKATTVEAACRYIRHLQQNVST
# Setting: whole 60-bp probe, lowest competitor level
Sequence,fluorescence intensity [a.u.]
CTTCTGTAAATTTGTATAGTGGGTGGACGCGCCCCG,4870
TTCTACTATCCGTGAAGCGTGACGGGCCCTTCTCAA,5890
GTCTTGTCTCATTGTGCTGTGGGTGTCCCCACTTCA,5060
CTTTCCCGATCTTTTCACGTGGTGTTAGCACATTTG,16400
GGTTTCTTATCAAGTGGCGTGCCAGGGCATCTACCA,6860
GTCTTGTCTCATTGCATAGTGGGTGTCCCCACTTCA,4930
TATGGCGAGCCACATCATGTGATTGCCGTTGAGGTT,6530
CTTTCCCGATCTTGCCTCGTGGGTGTAGCACATTTG,14200
CTTTTGCATCCGAGCCTCCTGGATAATAACTTCAAT,3250
AATGAAGAAAGTTAAACCGTGATGGATTACTTCTTG,5100
CCACAATCTGATGCTTTCGTGATGGATCCTCCAATT,3710
CGGGGTTAAGTTTGGAAGGTGGGTGGCTTGCAGCAG,5550
TCTGTGATACAGCGTCACATGACAATTTAAAAGTGT,7280
AAAGGCCATACCCGTCACAGTCCATCACAGAACCGC,3460
CGGGGTTAAGTTTGATCGGTGGGTGGCTTGCAGCAG,4250
AGCGCATCCCAGACACTCGTGTATCTAAATCCCAGT,8230
GGTGATATACTGCGACACAATTTGTGTCTCTACTGT,4450
TGCGCAACAACTTGCATCGTGGGTGTATGTCTAGAA,11400
AAAAGAGCGCAAGTACACATGCGATGCAAGGGCGGC,7320
GTATATTAAAGGCTGCATGTGGCTACGTCTATTAAA,11300
TGTGTCCGGAGAAACCTCGTGCGGAAAACAGCGCAA,11900
CTATGAAGACAACATCACCTGGAATGACATCTGGGG,3860
AACTAGATGTTGTCTATCGTGATGGGAAACCAGAGA,4050
CGGGGTTAAGTTTGGACCGTGGGTGGCTTGCAGCAG,8670
GTTGAGCGAACGCGACTCGTGGGACGGCCACTTCGC,8820

# Series 3 — technique: RNA Bind-n-Seq; form: RNA; matrix: in vitro; tested at: 200 nM; setting: whole 134-nt RNA, ends assumed; with: 150 mM LiCl; baseline: input library; direction: higher = stronger binding; each molecule: 7-deaza-guanosine replaces G
# Target: Ras GTPase-activating protein-binding protein 1, full length (G3BP1, Homo sapiens, UniProt Q13283)
# Sequence of UniProt Q13283 (whole entry, looked up): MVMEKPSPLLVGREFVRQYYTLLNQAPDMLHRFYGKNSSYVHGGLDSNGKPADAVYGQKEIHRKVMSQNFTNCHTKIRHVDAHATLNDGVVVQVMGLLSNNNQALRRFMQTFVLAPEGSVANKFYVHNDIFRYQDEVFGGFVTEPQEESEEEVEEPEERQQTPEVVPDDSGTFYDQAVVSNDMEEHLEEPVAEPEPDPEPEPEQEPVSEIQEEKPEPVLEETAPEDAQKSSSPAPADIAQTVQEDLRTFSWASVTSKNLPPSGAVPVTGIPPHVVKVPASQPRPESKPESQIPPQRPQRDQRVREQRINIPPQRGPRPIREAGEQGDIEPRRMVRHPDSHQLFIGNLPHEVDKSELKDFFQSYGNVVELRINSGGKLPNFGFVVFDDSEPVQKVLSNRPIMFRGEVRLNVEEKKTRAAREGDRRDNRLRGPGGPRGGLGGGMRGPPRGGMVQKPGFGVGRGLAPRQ
# All sequences stand within: GGGAGUUCUACAGUCCGACGAUC … UGGAAUUCUCGGGUGUCAAGG
Sequence,log2 enrichment
ACCAUGCAGGUGGGCAUCAUUGGGAAGUGGGGCAAGGGGGGGAUAGGGAGGGGGGUAACACUUUGGGAACAGGUGGUCCCAGGUCGUUUC,0.198
UAGGUAAGAAAGUACUCAUUGUCUAUGCACACCAGGAACCCAAGUCUUUCAACGGAUCCUUGAAGAAUGUGGCUGUAGAUGAACUGAGCA,-0.705
AGUCCUGUGCUACACAUCGUAUGUACCGAAUCGGUUUUGGGGUUUUGGGGUUUUGGGAAAGUAUUAUGUUACGCCGUUCGGAUCUGCACU,-0.509
AGUCCUGUGCUACACAUCGUAUGUACCGAAUCGGUUUUUUUGGAAAAAGGUUUUUGGAAAGUAUUAUGUUACGCCGUUCGGAUCUGCACU,-3.09
CAAGUCCUGUGCUACACAUCGUAUGUACCGAAUCGGAAAAGGAAAAGGAAAAGGGAAAGUAUUAUGUUACGCCGUUCGGAUCUGCACUUC,-0.618
ACCAUGCAGGUGGGCAUCUUUGGGAAGUGGGGCAAGGGGGGGAUAGGGGGGGGGGUAACACUUUGGGAACAGGUGGUCCCAGGUCGUUUC,-0.144
UGGCCCAGGUGGCAUGCGGGGAGGAAGAGGUGGCCUCAUGGAUCGUGGUGGUCCCGGUGGAAUGUUCAGAGGUGGCCGUGGUGGAGACAG,0.0856
CAAGUCCUGUGCUACACAUCGUAUGUACCGAAUCGGUUUGGGGUUUGGGGUUUGGAAAGUAUUAUGUUACGCCGUUCGGAUCUGCACUUC,-1.6
AGUCCUGUGCUACACAUCGUAUGUACCGAAUCGGAAAAAGGAAAAAGGGGAAAAAGGGAAAGUAUUAUGUUACGCCGUUCGGAUCUGCAC,-0.582
CCUGUGCUACACAUCGUAUGUACCGAAUCGGGGUUUUUGGGGAAAAAGGGGUUUUUGGGGAAAGUAUUAUGUUACGCCGUUCGGAUCUGC,-0.474
GUCCUGUGCUACACAUCGUAUGUACCGAAUCAAAUUUUUUUAAAUUUAAAUUUUUAAAAAAGUAUUAUGUUACGCCGUUCGGAUCUGCAC,-2.86

# Series 4 — technique: RNA Bind-n-Seq; form: RNA; matrix: in vitro; tested at: not given; baseline: input RNA pool; direction: higher = stronger binding
# Target: RING finger protein unkempt homolog, zinc fingers 1-6, GST-SBP tag (UNK, Homo sapiens, UniProt Q9C0B0, residues 30-357)
# Setting: RNA with constant flanks, human-mouse chimeric sites, ends assumed
# All sequences stand within: GGGAGUUCUACAGUCCGACGAUC … CAACAGAGGAUUGAGCAUCA
# Residues (chain): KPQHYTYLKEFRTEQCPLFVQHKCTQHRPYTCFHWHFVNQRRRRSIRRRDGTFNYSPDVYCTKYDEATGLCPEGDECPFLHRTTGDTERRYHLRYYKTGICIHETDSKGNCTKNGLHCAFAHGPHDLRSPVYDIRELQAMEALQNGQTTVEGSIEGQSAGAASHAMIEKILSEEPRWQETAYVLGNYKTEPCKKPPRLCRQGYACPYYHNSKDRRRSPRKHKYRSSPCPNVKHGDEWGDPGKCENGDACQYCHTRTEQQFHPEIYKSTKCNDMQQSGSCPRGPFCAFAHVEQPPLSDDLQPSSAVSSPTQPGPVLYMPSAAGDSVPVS
Sequence,bound/input enrichment [ratio]
CUGGCCUGGCCCUCCCCAGGGGCCUCCUUUCGUAUAGUCACUGCUUCUGCAUCAGAUACUUUCAGCUCCAAGUCCUGACUGGGUGGGGCACCUAUCUCAGGCAGAAGGUUUUGGUACCCU,0.177
CCAAUUGUGGAGCAGUACUUGAAGACAAAAAAGAACUCUAAUAAUUUAAUCAUCAAGUACAUUAGCUGCCGCCUGCUGACACUCAUCGUUAUACUGUUAGCGUGUAUCUACCUGGGCUAU,0.311
GGAAGUACAAUGAUGGAGAUUGAUGGUGACAAAGGCAAGCAGGGCGGGCCCACCUACUACAUAGAUACUAAUGCUCUCCGCGUGCCCAGGGAGAACAUGGAGGCCAUCUCACCACUCAAG,0.88
GCGGCAGAAUCAUGGUGGACAUGAUGGAGCUCCCCAAAGCGCGCGUCAACGCCAGCAUGUUACCACAGUAUAUCGACCGGCCCGUGUGCUUCGUGGGGAAGCUGGAAAAGAUUCAUCCCA,0.141
ACCAUUUUCGCGGUUCAGGCUUUGUGUGUAGUUCACUUACGGUAUUAAAUUAUUAUUCUGCUUAGCUUAAAGUAAGGAUUACAAUUGUUAAAGAGGUUACUGAAUGUUACUCUGAAACUU,0.805
GCUCCUCCCCGCUCUGCAGCCUGGGGACUUUUGGCAAGGACCAGAAUCCAGCUUUCUUUUAAAACUCUCAGUGUAACUGUAUCCCGUGACAUUUCAUUUUUUUUAAAUAGUGUAUUUUUU,4.21
AACAGAUUGUCUUUAAGCAUUCCAAGCGAGAAUGCUGAAAUAGUCAUUGUUGCCCAUAUAUAGUAAUACUGAGCUUUAAUGCUGUUCCAUGUUACAUCUUUCCUUCACUCCAGAAUUGUU,1.16
CUAAUCCCCUUUACUGCUCCCCCACUUCUCAUGGUAAUAACAAAGUCUUAUAUUCCCGUCCUAGCUUUCACUCAGAUGGCUUAUGGAGCCGGUUUCCUAGCUUUCUUGGGAGGGAUCAGA,0.898
GUUGCCAGCUUCCGGUUCCGUUGGGCUCGGUUCUCUCCUGAGCUACGGUCCCUGGCACUCUCAAUCCGCCAUCCAACAAACAUGGAUCAGGUAAUGCAGUUUGUGGAUGAGCCAAGUCAG,0.0529
AAUGUGGAGUUGAGUUCCUUGGCCCGGCUUCCCAGCUUGAAUAAACUCCGGAAGUUGGAGCUUAGUGACAAUAUAAUUUCUGGAGGCUUGGAAGUCCUGGCAGAGAAAUGUCCAAAUCUU,0.165
UGGCGCCUCCCAUUUUUACUCGUGUUUUUAAGUGUAUUUUUAUAAGAUACAUGUAUUUACAAUUGAGCUUUUGUUACUAUAAUACUGAAUGCUACUGGAGAUUAUGAAAAAUGUUUCAAU,0.22

# Repeated from above (series 1):
Sequence,RBNS enrichment (R)
CCCGCUGUCAGUCUGUGUCCUCCACGUGCUUAUUUCCUGUGGUGAGAGCAGUUGUGGUGUUUGUAUACCUUGUGCCUUAUGAUCAAGGUGGGCCUUGGAGGAGGGCGGGA,1.39
CCCACACGCCUCACCUCGGUGAGUGGGCAGAGCUGAGCCGCACUGUGUGCCUGGGAGCAGGUUACAACUCUGGUUUGACUUUCAUUUUGUUGAGAAGCUUCUGUUUUAAG,0.488
UCCUUGAGCCCAGGGACCAUGGAAGUCAGCUAGAAGAGCCCUGAGCAAGGAGCAAGGACUUGGGCUUCUCCACGCUUUGCUCCUGGCUUGUUUGACCUUGACUCAUUCCC,0.313
GCCAUCCUGAAGGCCCUUCCCCAUAGGCGCUGAAGCUGGAGCUGGCGGGACCCCACCACGAGUGCUUCCAGAACCGCAACAGGAUAUCAGUCCUGCAUCUUCUGUGUAGU,0.303
UACUGAAACAUUGUGCCAAGAAACUCUGUGGGAUUUGUGUCCCUUAAACCAGACUCACUUUUCUGAAAAAUCUCCAUUGUUGAGGAGAGGCUGCUCAAUCGACACCCCGA,0.441
UUUUUUUCCCUUAAUGUUGAAUUAAAAUACUUGCUCAUAGUUGAUUUACCAUUCCUACAAAAGAGGCAGAAACUUUGAGCAAUCUAGGUUUUUUUUUUUUUUAAGUUUUU,1.03
